Assay results pooled from the literature.
Compare with care: the assays were run in different laboratories. ± gives the spread as reported.

Compound	assay	system	setting	quantity	value
O=C(O)C1OC(Oc2cccc(-c3nc(N4CCOCC4)c4oc5ncccc5c4n3)c2)C(O)C(O)C1O (centres unmarked)	glucuronide formation	minipig liver microsomes	pH 7.4	CLint	145 ± 18.4 µL/min/mg
Brc1ccc(Nc2nc(NN=Cc3c[nH]c4ccccc34)nc(N3CCOCC3)n2)cc1		rat liver microsomes		CLint	33.2 mL/min/g protein
CC[C@@H](C)[C@@H]1NC(=O)[C@@H](Cc2ccccc2)NC(=O)[C@@H]2CCCN2C(=O)[C@H]([C@H](C)CC)NC(=O)[C@@H](Cc2ccccc2)NC(=O)[C@@H]2CCCN2C1=O		human liver microsomes		CLint	7.14 mL/min/g tissue
CCC/C(=C\C1=C(F)C(=O)c2ccccc2C1=O)C(=O)N(CC)CC		human liver S9	1 µM, pH 7.4, metabolism	CLint scaled	5.3 mL/min/kg
Cc1ncccc1-c1ccc(C(=O)N2CC[C@H](C(=O)Nc3cc(F)c(F)c(F)c3)C2)[nH]1		human liver microsomes	1 µM	CLint	5.7 µL/min/mg protein
CCC/C(=C\C1=C(OC)C(=O)c2ccccc2C1=O)C(=O)NOC		mouse liver S9	1 µM, pH 7.4, phase I metabolism	CLint scaled	20.2 mL/min/kg
Cc1ncncc1-c1ccc(C(=O)N2CC[C@H](C(=O)Nc3cc(F)c(F)c(F)c3)C2)[nH]1		human liver microsomes	1 µM	CLint	7.1 µL/min/mg protein
CCc1nc(-c2ccc(-c3ccc(CCC(N)(CO)CO)cc3)cc2)co1	phosphorylation	rat whole blood		CLint	0.309 µL/min

Some of these lines once more:
Compound	assay	system	setting	quantity	value
Cc1ncccc1-c1ccc(C(=O)N2CC[C@H](C(=O)Nc3cc(F)c(F)c(F)c3)C2)[nH]1		human liver microsomes	1 µM	CLint	5.7 µL/min/mg protein
